Measured values gathered from unrelated publications.
Each line is one published result; not all experiments were run side by side.
Cell line: ACHN

COc1cc(CNC(=O)C[C@H](C)CCC=C(C)C)ccc1OCc1cn(-c2ccccc2)nn1
growth percent (SRB; 10 µM, 48 h): 111%

COc1ccc2c(c1)/C(=N\Nc1nnc3n1N=C(c1ccccc1)CS3)C(=O)N2
inhibition (cell growth or viability, SRB; 10 µM): 35%

CCC(=C(c1ccc(Cl)cc1)c1ccc(OCCCN(C)C)cc1)c1ccc(OC)cc1
GI50 (cell growth or viability): 5.61 µM

COc1cc(CNC(=O)C[C@H](C)CCC=C(C)C)ccc1OCc1cn(-c2ccc(F)cc2)nn1
growth percent (SRB; 10 µM, 48 h): 69%

CC(Cc1ccc(Cl)cc1)=C(c1ccc(Cl)cc1)c1ccc(OCCN(C)C)cc1
GI50 (cell growth or viability): 5.12 µM

COc1cc(CNC(=O)C[C@H](C)CCC=C(C)C)ccc1OCc1cn(-c2ccc(Cl)cc2Cl)nn1
growth percent (SRB; 10 µM, 48 h): 61.1%

COc1ccc(C2=Nn3c(NN=C4C(=O)N(Cc5ccccc5)c5ccc(Cl)cc54)nnc3SC2)cc1
inhibition (cell growth or viability, SRB; 10 µM): 23%

CC(=O)OC[C@H]1O[C@@H](Sc2sc(C(=O)c3ccc(Br)cc3)c(N)c2-c2nc3ccccc3s2)[C@H](OC(C)=O)[C@@H](OC(C)=O)[C@@H]1OC(C)=O
growth (SRB; 10 µM, 48 h; baseline: untreated): 97.8%

CC/C=C\C/C=C\C/C=C\C/C=C\C/C=C\C/C=C\CCC(=O)Nc1ccn(C2OC(CO)C(O)C2(F)F)c(=O)n1 (stereo not drawn)
GI50 (cell growth or viability, SRB): < 0.01 µM

Some of these lines once more:
CCC(=C(c1ccc(Cl)cc1)c1ccc(OCCCN(C)C)cc1)c1ccc(OC)cc1
GI50 (cell growth or viability): 5.61 µM
